Measured values pooled from the literature.
Numbered parts are unrelated; each lists some results of a single study.

Study 1
Target: Interferon regulatory factor 3, full length, phosphomimetic (IRF3, Homo sapiens, UniProt Q14653, residues 1-427, S386D/S396D/S398D/S402D/T404D/S405D)
Sequence of UniProt Q14653 (whole entry, unmodified, looked up): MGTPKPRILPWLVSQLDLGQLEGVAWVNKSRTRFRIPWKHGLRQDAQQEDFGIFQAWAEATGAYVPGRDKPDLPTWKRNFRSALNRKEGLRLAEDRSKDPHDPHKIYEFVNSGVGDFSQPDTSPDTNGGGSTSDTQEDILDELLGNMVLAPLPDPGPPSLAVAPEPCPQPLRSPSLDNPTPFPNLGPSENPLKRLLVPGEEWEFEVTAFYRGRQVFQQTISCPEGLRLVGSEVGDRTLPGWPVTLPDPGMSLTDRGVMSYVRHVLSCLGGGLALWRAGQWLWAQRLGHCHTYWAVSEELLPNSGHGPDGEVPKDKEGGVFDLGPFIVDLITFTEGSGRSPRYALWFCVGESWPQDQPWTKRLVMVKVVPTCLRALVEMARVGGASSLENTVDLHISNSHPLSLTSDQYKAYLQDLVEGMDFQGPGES
Technique: protein-binding microarray
Form: double-stranded DNA, one strand shown
Medium: in vitro
Concentration: 2540 nM top
Notes: 60-bp whole probe
Together with: salmon DNA 0.4 mg/ml
Reference: random background probes
Reading: higher = stronger binding
Constant ends, left off below: GCCTAGCAC … GTCTTGATTCGCTTGACGCTGCTG
| Oligonucleotide | fitted relative affinity [z-score] |
| --- | --- |
| TTAGGTATCGACTATCGGTTAGTGCTA | 0.564 |
| GACGGTTTCGATTATCGGGACGTGCTA | 5.71 |
| GACGGTTTCGATTTCGGGACGTGCTAG | 7.89 |
| TTAGGTTTCCTCCTCCTTTAGTGCTAG | 4.4 |
| TTAGGTGTCGGTTTCGGTTAGTGCTAG | 6.75 |
| TTAGGTCTCCAACTGCTTTAGTGCTAG | 0.525 |
| TCAAATTTCCCTCTGCTACTGTGCTAG | 2.27 |
| GACGATCTCCGACTGGAGACGTGCTAG | 0.406 |
| GACGGTTTCGACACTTGGGACGTGCTA | 2.88 |
| TAAGATTCCAGTTTCGATTAGTGCTAG | 5.06 |
| TTAGTTTTCGGGTATCGATTAGTGCTA | 2.56 |
| TCATCTTTCTAATTCAAACTGTGCTAG | 2.33 |
| TTTTTTTTGCAAGCTAAAAAAGTGCTA | 1.09 |
| TAATTTCCATTTTCTAAATGCGTGCTA | 6.62 |
| ATCTCACTCTGTCCCTCTGTGTGCTAG | 0.874 |
| TTAGAACTGAGACTTGATTAGTGCTAG | -0.472 |
| GACGATTCAAGTTTCGAGACGTGCTAG | 1.81 |
| TTAGGTTTGGGTTTCGGTTAGTGCTAG | 3.67 |
| TCAGCTTTCCTCGTGATACTGTGCTAG | 1.25 |

Study 2
Target: Histone acetyltransferase KAT6A, winged helix 2, GST fusion (KAT6A, Homo sapiens, UniProt Q92794, residues 85-181)
Technique: protein binding microarray
Form: double-stranded DNA, one strand shown
Medium: in vitro
Concentration: not given
Notes: 8-mer, flanks averaged, mean of 2 arrays, mostly near background
Reference: not given
Reading: higher = stronger binding
Residues (chain): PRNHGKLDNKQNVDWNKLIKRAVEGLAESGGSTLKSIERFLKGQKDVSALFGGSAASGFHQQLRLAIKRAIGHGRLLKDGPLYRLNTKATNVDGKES
| Oligonucleotide | E-score |
| --- | --- |
| AATTGCAT | -0.0188 |
| CGTAACTC | -0.055 |
| CAAGCGGG | 0.106 |
| CGTGAAGC | -0.102 |
| AGAACTGA | 0.0842 |
| AAACTCCC | 0.0103 |
| CAGCTAGG | -0.045 |
| AGACACGC | 0.107 |
| ACTTGAGC | -0.166 |
| AATGGAAA | -0.0669 |
| AGCCAAGG | 0.0186 |
| AGGCATAG | -0.058 |
| CCAACTCA | 0.0799 |
| CCGAATCA | 0.143 |
| AACCGCAG | 0.111 |
| ACGACACG | -0.0253 |
| CCCGCACG | 0.0857 |
| ACGGATCA | 0.01 |
| CAACGACG | -0.0478 |
| ATTTCAAC | -0.0781 |
| GCTGTGGA | 0.184 |
| CACAATGG | -0.00504 |
| ACTGGCTA | -0.0268 |
| ATCTTTCC | -0.072 |
| ACAACGCA | -0.079 |

Study 3
Target: Probable WRKY transcription factor 50, DNA-binding domain (WRKY50, Arabidopsis thaliana, UniProt Q8VWQ5, residues 99-173)
Technique: DNA-protein interaction ELISA
Form: double-stranded DNA, one strand shown
Medium: in vitro, bacterial lysate
Concentration: not given
Notes: whole dsDNA probe, crude lysate protein
Reference: highest signal in screen
Reading: higher = stronger binding
Target sequence (chain): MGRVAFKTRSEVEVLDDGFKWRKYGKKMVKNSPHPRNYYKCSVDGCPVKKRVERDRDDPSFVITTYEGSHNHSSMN
| Oligonucleotide | relative absorbance |
| --- | --- |
| AAAAAATTAGACGCTACACTTACGGTAAAA | 10.8 % of maximum |
| AAAAAATGCTATCCGTGTCTATGCCAAAAA | 18.2 % of maximum |
| AAAAAAGCTTCTCATGTTGTCTTAGGAAAA | 20.4 % of maximum |
| AAAAAATGTCGGCTGTTAGGATATCGAAAA | 10.7 % of maximum |
| AAAAAAGTCTAAGGACTTATAGCTGTAAAA | 82.2 % of maximum |
| AAAAAAGGTTGGTACGTCGAGTTCTTAAAA | 10.6 % of maximum |
| AAAAAAGCTCATGGCCCTGAGGATCTAAAA | 24.3 % of maximum |
| AAAAAATGGTCGTCGTACTCGTGGTCAAAA | 60.5 % of maximum |
| AAAAAATCTATTCCATTTCGCCTTCTAAAA | 22.3 % of maximum |
| AAAAAATTAATCCATGCTTATGTCTGAAAA | 31.8 % of maximum |
| AAAAAAGAGAATTGTCAGTGCCCAACAAAA | 30.7 % of maximum |
| AAAAAAGATTGACTCGTCTTACTCGAAAAA | 79.7 % of maximum |
| AAAAAAAAAAAAAAAAAAAAAAAAAAAAAA | 12.7 % of maximum |
| AAAAAATTTCTATTTCATCTTTGCCCAAAA | 48.2 % of maximum |
| AAAAAAGGTGAGGAAGTTGGGTATGGAAAA | 16.6 % of maximum |
| AAAAAACACGCCATTGACACTGGTAAAAAA | 17.3 % of maximum |
| AAAAAAAATCTTAGCTCTATCTCATCAAAA | 28.5 % of maximum |
| AAAAAAGTTTCTGCTTTCCCTTTCGTAAAA | 51.1 % of maximum |
| AAAAAATGGTACTCAGAGTTATAGACAAAA | 25.1 % of maximum |
| AAAAAAAGTCTGCGGCTGCAGGGCGGAAAA | 41.8 % of maximum |
| AAAAAATAGTACCGCTAATGGCTGACAAAA | 27.4 % of maximum |
| AAAAAAGTCTGCGTCCTACCCCATTCAAAA | 47.8 % of maximum |
| AAAAAACTAACCGTCGCAGGCGTGTGAAAA | 15.1 % of maximum |
| AAAAAACATAACCGCAAAATCCCTACAAAA | 9.13 % of maximum |

Study 4
Target: RNA binding protein fox-1 homolog 2, RRM domain, GST-SBP tag (RBFOX2, Homo sapiens, UniProt O43251-10, residues 100-194)
Technique: RNA Bind-n-Seq
Form: RNA
Medium: in vitro
Concentration: 365 nM
Notes: natural RNA segment, single round, ends assumed
Reference: no-protein control
Reading: higher = stronger binding
Constant ends, left off below: GGGAGUUCUACAGUCCGACGAUC … UGGAAUUCUCGGGUGCCAA
Target sequence (chain): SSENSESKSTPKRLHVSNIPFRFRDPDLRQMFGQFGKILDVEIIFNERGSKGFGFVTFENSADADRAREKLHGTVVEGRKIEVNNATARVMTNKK
| Oligonucleotide | RBNS enrichment (R) |
| --- | --- |
| UCUCUUUUCCUGACCCUCCCUAAAGGCGUUGCCCUCCUAUCCUCCCCUCCCUUGCCCACCCUUGUUUUCUUGGCAUGGGAGGCUUUUCCCUAAGCCACCUGCCCCUAGAG | 1.05 |
| UGCAGAUGUGAAAGCUAAGACCAUGAACCAUGUGAGAUUCCAAACCAAAUAAGCUUGCUGCCAUGGUCUAGGGUGAGGGUGCUGUCCUGUGCAAAUGUUAAGUUGGAUAU | 1 |
| AACUUCUGUGCUGCUUUGCCCCUAGCCAAGGCUCUCCUUCCCCAAGAGGUUAGCUUUGGCAUUGGAAGAUGAGAUUUUUGCUUACCUGUAGUAUUUCUGUACAUACCUGU | 0.279 |
| CCCUCAAAGAGUCUAAAACGUCUCAUUUUUUUUUACCACGUCCUCCCCAGUAAGAAGCCAAGGUACAACUCAUUGUACCUACGAGGUACAAACUCAUUUGUAGAAACAAA | 0.5 |
| GCUCGUAUGUCAGGGACAGGUGUUUGGCAGAAGAGACUUCUAGGUUACUGCUAGAUUCCAAUUCAACUGCCUUGUAGCCUGGGAAGCCCAGCAAGUCAUAACCUCCUGUC | 0.388 |
| AAAAAGUUGAUAUUGUGUUUUGUGGGACUGUAUAUGUUGUCAUUUUUAAAGGGGGGAAAUAACAUCCAAGUCUGAUUAGAACCGCCCAUCAGUUGUUCUUGGAAGUUUUU | 1.64 |
| CUGGACUGUCAGCUGUCCAACUGUCCCUGUUGUAAGUGCUAUUAACUAUCUCAGUUACCAGAAUCUUGCUGCUCAAGUUUCGAGUGAUCGACAAUGGAUUUUUAACCAAG | 0.299 |
| UGAAGUUCAUUAUUUUGUGGUUUUAUUUUACUUUGUACUUGUGUUUGCUUAAACAAAGUAACCUGUUUGGCUUAUAAACACAUUGAAUGCGCUCUAUUGCCCAUGGGAUA | 1.21 |

A few entries again (study 2):
| Oligonucleotide | E-score |
| --- | --- |
| ATTTCAAC | -0.0781 |
| AGACACGC | 0.107 |
| AATGGAAA | -0.0669 |
| AGGCATAG | -0.058 |
| CAACGACG | -0.0478 |
| ACGACACG | -0.0253 |
